Assay results of several laboratories.
Compare with care: the assays were run in different laboratories.
Organism: Enterococcus faecalis

Compound | observed | technique | strain | medium | time | temperature | MIC
c1ccc(CCNC2CCCc3c2[nH]c2ccc(C4CCCCC4)cc32)cc1 (stereo not shown) |  | broth microdilution | JH2-2 | cation-adjusted MHB |  |  | 2 µg/mL
COc1cccc(C2Nc3ccccc3C3=[O+][Cu-2]4([Cl])[O]c5c(cccc5OC)C=[N+]4N32)c1O (stereo not shown) |  | broth microdilution | vancomycin-resistant 725 B |  | 24 h |  | > 256 µg/mL
CN1C(=O)[C@@H]2NC(=O)[C@@H]3NC(=O)[C@@H](c4ccc(O)cc4)NC(=O)[C@H](NC(=O)C(NCc4ccc(O)c(O)c4O)c4ccc(O)cc4)Cc4c[nH]c5cc(ccc45)-c4cc3cc(c4O)Oc3ccc(cc3)C[C@H]1C(=O)N[C@@H](C(=O)O)c1ccc(O)c(c1)Oc1ccc2cc1 (stereo partly shown) |  |  |  | brain heart infusion medium |  |  | 8 µg/mL
Cc1cccc(-c2nc(Nc3ccncn3)c3c(C)csc3n2)n1 | microbial growth | broth dilution |  |  |  |  | 16 µM
CC[C@@H](C)[C@@H](NC(=O)[C@@H](C)NC(=O)[C@@H](CCCCN)NC(=O)[C@@H](CC(C)C)NC(=O)[C@@H](C)NC(=O)[C@H](NC(=O)[C@@H](Cc1c[nH]cn1)NC(=O)[C@@H](CC(C)C)NC(=O)[C@H](NC(=O)[C@H](NC(=O)[C@@H](CCCCN)NC(=O)[C@@H](CCCCN)NC(=O)[C@@H](C)NC(=O)[C@@H](CO)NC(=O)[C@@H](CCCCN)NC(=O)[C@@H](Cc1ccccc1)NC(=O)[C@H](NC(=O)[C@@H](CCCCN)NC(=O)[C@@H](CC(C)C)NC(=O)[C@@H](Cc1ccccc1)NC(=O)[C@@H](CO)NC(=O)[C@@H](CCCCN)NC(=O)[C@@H](Cc1c[nH]c2ccccc12)NC(=O)[C@@H](CCCCN)NC(C)=O)[C@H](C)O)[C@H](C)O)C(C)C)[C@H](C)O)C(=O)N[C@H](CO)C(=O)N[C@H](CO)C(N)=O |  |  | ATCC 29212 |  |  |  | 32 µg/mL
CC(C)[C@H](NC(=O)[C@H](CCCNC(=N)N)NC(=O)[C@H](CCCNC(=N)N)NC(=O)[C@@H](NC(=O)[C@H](C)NC(=O)[C@H](CC(N)=O)NC(=O)[C@H](CCCNC(=N)N)NC(=O)[C@@H](NC(=O)[C@H](CCCNC(=N)N)NC(=O)[C@H](CCCNC(=N)N)NC(=O)[C@@H](NC(=O)[C@@H](NC(=O)[C@H](CCCNC(=N)N)NC(=O)[C@H](CCCNC(=N)N)NC(=O)[C@H](Cc1c[nH]c2ccccc12)NC(=O)[C@H](Cc1c[nH]c2ccccc12)NC(=O)CN)[C@@H](C)O)C(C)C)C(C)C)C(C)C)C(=O)O |  |  | clinical strain |  | 18 h | 37 °C | 32 µg/mL
CN1C(=O)[C@@H]2NC(=O)[C@@H]3NC(=O)[C@@H](c4ccc(O)cc4)NC(=O)[C@H](NC(=O)C(NCc4cccc(-c5ccc(F)cc5)c4)c4ccc(O)cc4)Cc4c[nH]c5cc(ccc45)-c4cc3cc(c4O)Oc3ccc(cc3)C[C@H]1C(=O)N[C@@H](C(=O)O)c1ccc(O)c(c1)Oc1ccc2cc1 (stereo partly shown) |  |  |  | brain heart infusion medium |  |  | 16 to 32 µg/mL
Oc1ccccc1C1Nc2ccccc2C2=[O+][Cu-2]3([Cl])[O]c4ccccc4C=[N+]3N21 (stereo not shown) |  | broth microdilution | vancomycin-resistant 725 B |  | 24 h |  | 256 µg/mL
CNC(CC(C)C)C(=O)NC1C(=O)NC(CC(N)=O)C(=O)NC2C(=O)NC3C(=O)NC(C(=O)NC(C(=O)O)c4cc(O)cc(O)c4-c4cc3ccc4O)C(O)c3ccc(c(Cl)c3)Oc3cc2cc(c3OC2OC(CO)C(O)C(O)C2OC2CC(C)(NCc3ccc(-c4ccc(Cl)cc4)cc3)C(O)C(C)O2)Oc2ccc(cc2Cl)C1O (stereo not shown) |  | broth microdilution | ATCC BAA-2573 VanA |  |  |  | 0.3 µg/mL
CCN1CCNC1=[S+][Ag-3]([O][N+](=O)[O-])([P+](c1ccccc1)(c1ccccc1)c1ccccc1)[P+](c1ccccc1)(c1ccccc1)c1ccccc1 |  | agar dilution | MTCC 439 | Mueller Hinton agar | 24 h | 37 °C | 10 µg/mL

Some of these lines once more:
Compound | observed | technique | strain | medium | time | temperature | MIC
CC(C)[C@H](NC(=O)[C@H](CCCNC(=N)N)NC(=O)[C@H](CCCNC(=N)N)NC(=O)[C@@H](NC(=O)[C@H](C)NC(=O)[C@H](CC(N)=O)NC(=O)[C@H](CCCNC(=N)N)NC(=O)[C@@H](NC(=O)[C@H](CCCNC(=N)N)NC(=O)[C@H](CCCNC(=N)N)NC(=O)[C@@H](NC(=O)[C@@H](NC(=O)[C@H](CCCNC(=N)N)NC(=O)[C@H](CCCNC(=N)N)NC(=O)[C@H](Cc1c[nH]c2ccccc12)NC(=O)[C@H](Cc1c[nH]c2ccccc12)NC(=O)CN)[C@@H](C)O)C(C)C)C(C)C)C(C)C)C(=O)O |  |  | clinical strain |  | 18 h | 37 °C | 32 µg/mL
CN1C(=O)[C@@H]2NC(=O)[C@@H]3NC(=O)[C@@H](c4ccc(O)cc4)NC(=O)[C@H](NC(=O)C(NCc4cccc(-c5ccc(F)cc5)c4)c4ccc(O)cc4)Cc4c[nH]c5cc(ccc45)-c4cc3cc(c4O)Oc3ccc(cc3)C[C@H]1C(=O)N[C@@H](C(=O)O)c1ccc(O)c(c1)Oc1ccc2cc1 (stereo partly shown) |  |  |  | brain heart infusion medium |  |  | 16 to 32 µg/mL
